Published values from different studies.
Each line is one published result; not all experiments were run side by side. ± marks the error that the study gave.

Substance	tested on	test	system	setting	how to read	endpoint	result
CN(C)c1ccc(C(=C2C=CC(=[N+](C)C)C=C2)c2ccccc2)cc1.CN(C)c1ccc(C(=C2C=CC(=[N+](C)C)C=C2)c2ccccc2)cc1.O=C(O)C(=O)O.O=C([O-])C(=O)O.O=C([O-])C(=O)O	HeLa	Ebola VLP entry				maximal inhibition	95%
COc1ccc(-c2ccc3c(N)c(C(=O)Nc4ccc(OC)c(OC)c4)sc3n2)cc1	ScN2a-cl3	PrPSc level				EC50	> 10 µM
Cc1ccc([N+](=O)[O-])[c]2c1[O][Hg]2	HeLa	Ebola VLP entry				IC50	4.85 µM
CNC(=O)[C@@H](NC(=O)[C@H](CC(C)C)[C@H](O)C(=O)NO)C(C)(C)C	C2C12			10 µM, added: PB venom	reference: venom alone	viability difference	13.8%
Cc1ccc(C)c(Nc2cc(C(=O)NCCCN(C)C3CCCCC3)c3ccccc3n2)c1	SARS-CoV-2	cytopathic effect	USA_WA1/2020	retest, 8-point, duplicates		maximum response	58.9%
COc1cc(Nc2c(C#N)cnc3cc(OCCCN4CCN(C)CC4)c(OC)cc23)c(Cl)cc1Cl	Huh-7	pseudovirus entry	MERS-CoV spike pseudovirus			EC50	1.25 ± 0.01 µM
O=C(NCCN1CCCCC1)c1ccc(-c2ccc(N3CCSCC3)nc2)cc1	SARS-CoV-2	cytopathic effect	USA_WA1/2020	retest, 8-point, duplicates		maximum response	83.4%
CC(C)C[C@H](NC(=O)CNC(=O)[C@H](Cc1ccccc1)NC(=O)[C@H](CO)NC(=O)[C@H](CC(N)=O)NC(=O)[C@H](Cc1c[nH]c2ccccc12)NC(=O)[C@H](CC(N)=O)NC(=O)[C@@H](N)Cc1ccc(O)cc1)C(=O)N[C@@H](CCCNC(=N)N)C(=O)N[C@@H](Cc1ccc(O)cc1)C(N)=O	GnRH neurons	depolarization, agonist		room temperature, added: TTX 1 µM		EC50	0.00332 ± 2e-05 µM
Cn1cnc(Cn2c(=O)[nH]/c(=N\c3cc4cn(C)nc4cc3Cl)n(Cc3cc(F)c(F)cc3F)c2=O)n1			human, all renal function groups	oral, 375 mg, treatment-related decreased GFR, Moderate severity		patients with adverse event	3.1%
SATSFPPSYESVARG	human DRG neurons		peptide	10 µM, 24 h, +20 mV, added: 250 nM TTX		TTX-resistant current density	decreased
CN1CCCN(C(c2ccccc2)c2ccc(Cl)cc2)CC1.Cl.Cl (centres unmarked)	HeLa	Ebola VLP entry				maximal inhibition	95%
CC(C)C[C@H](NC(=O)[C@H](Cc1ccccc1)NC(=O)[C@@H]1CCCN1C(=O)[C@H](CC(=O)O)NC(=O)[C@H](CC(N)=O)NC(=O)[C@H](CS)NC(=O)[C@H](Cc1ccccc1)NC(=O)[C@H](CCC(N)=O)NC(=O)[C@H](Cc1ccccc1)NC(=O)[C@H](CCC(=O)O)NC(=O)[C@@H](N)CS)C(=O)NCC(=O)N[C@H](C(=O)N[C@@H](Cc1ccc(O)cc1)C(=O)N[C@@H](Cc1ccc(O)cc1)C(=O)O)C(C)C	human PBMC CD4 T cells	AIM				responding donors	27%
CC(CN(C)C)CN1c2ccccc2Sc2ccccc21 (centres unmarked)	Huh-7	pseudovirus entry	MERS-CoV spike pseudovirus			EC50	0.73 ± 0.13 µM
Nc1ncnc2c([C@@H]3N[C@H](CO)[C@@H](O)[C@H]3O)c[nH]c12	Venezuelan equine encephalitis virus	viral replication	HeLa, SH3	0.4 µM		inhibition	0.8%
CC(C)C[C@H]1[C@@H](c2ccccc2)OC(=O)N1CCCN1CCCCCC1	HeLa	Ebola VLP entry				IC50	19.3 µM
CC[C@H](C)[C@H](NC(=O)[C@H](CC(C)C)NC(=O)[C@H](Cc1c[nH]c2ccccc12)NC(=O)[C@H](CCC(N)=O)NC(=O)[C@@H](NC(=O)[C@H](Cc1ccccc1)NC(=O)[C@H](C)NC(=O)[C@H](CCCCNC(=O)COCCOCCNC(=O)COCCOCCNC(=O)CC[C@H](NC(=O)CCCCCCCCCCCCCCCCCCC(=O)O)C(=O)O)NC(=O)[C@H](CCC(N)=O)NC(=O)[C@H](C)NC(=O)[C@@H](NC(=O)[C@H](CCCCN)NC(=O)[C@H](CC(=O)O)NC(=O)[C@H](CC(C)C)NC(=O)C(C)(C)NC(=O)[C@@H](NC(=O)[C@H](CO)NC(=O)[C@H](Cc1ccc(O)cc1)NC(=O)[C@H](CC(=O)O)NC(=O)[C@H](CO)NC(=O)[C@@H](NC(=O)[C@H](Cc1ccccc1)NC(=O)[C@@H](NC(=O)CNC(=O)[C@H](CCC(=O)O)NC(=O)C(C)(C)NC(=O)[C@@H](N)Cc1ccc(O)cc1)[C@@H](C)O)[C@@H](C)O)[C@@H](C)CC)[C@@H](C)CC)C(C)C)C(=O)N[C@@H](C)C(=O)NCC(=O)NCC(=O)N1CCC[C@H]1C(=O)N[C@@H](CO)C(=O)N[C@@H](CO)C(=O)NCC(=O)N[C@@H](C)C(=O)N1CCC[C@H]1C(=O)N1CCC[C@H]1C(=O)N1CCC[C@H]1C(=O)N[C@@H](CO)C(N)=O		item: anti-drug antibodies	healthy subjects	4.5 mg, postbaseline, multiple ascending dose, titre ≥1:20		subjects with treatment-induced ADA	0%
OCCN1CCN(CCC=C2c3ccccc3Sc3ccc(C(F)(F)F)cc32)CC1	Huh-7	pseudovirus entry	MERS-CoV spike pseudovirus			EC90	6.8 ± 0.4 µM
CC1=C(C(=O)OCCc2ccccc2)C(c2ccccc2[N+](=O)[O-])C2=C(CCCC2=O)N1 (centres unmarked)	HEK293T	pseudovirus entry	SARS-CoV spike pseudotyped HIV-1	72 h		EC50	> 50 µM
CCc1c(C(=O)C(N)=O)c2c(OCC(=O)O)cccc2n1Cc1ccccc1	C2C12			10 µM, added: TN venom	reference: venom alone	viability difference	23.1%
CNCCCC1c2ccccc2C=Cc2ccccc21.Cl	HeLa	Ebola VLP entry				maximal inhibition	98%

Excerpt of the above:
Substance	tested on	test	system	setting	how to read	endpoint	result
CC1=C(C(=O)OCCc2ccccc2)C(c2ccccc2[N+](=O)[O-])C2=C(CCCC2=O)N1 (centres unmarked)	HEK293T	pseudovirus entry	SARS-CoV spike pseudotyped HIV-1	72 h		EC50	> 50 µM
